Assay results from different studies.
Values joined by “and” are separate records of one study, mostly repeats; a detail may differ. Numbers after ± are the reported error.
OPRM1 C348A/C353A: Mu-type opioid receptor (OPRM1, Homo sapiens, UniProt P35372, C348A/C353A)
Chain of UniProt P35372 (whole entry, unmodified, looked up): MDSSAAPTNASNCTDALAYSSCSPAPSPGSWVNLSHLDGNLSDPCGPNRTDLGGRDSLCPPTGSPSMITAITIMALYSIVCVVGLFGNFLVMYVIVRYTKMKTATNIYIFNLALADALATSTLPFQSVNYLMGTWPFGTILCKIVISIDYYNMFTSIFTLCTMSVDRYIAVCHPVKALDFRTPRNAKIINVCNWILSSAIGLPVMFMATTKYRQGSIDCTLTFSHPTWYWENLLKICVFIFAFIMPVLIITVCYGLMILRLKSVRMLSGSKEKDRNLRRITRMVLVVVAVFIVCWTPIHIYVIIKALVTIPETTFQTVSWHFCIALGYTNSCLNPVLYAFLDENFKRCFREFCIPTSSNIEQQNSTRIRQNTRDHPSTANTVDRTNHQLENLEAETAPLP
Chain of UniProt P32300 (whole entry, looked up): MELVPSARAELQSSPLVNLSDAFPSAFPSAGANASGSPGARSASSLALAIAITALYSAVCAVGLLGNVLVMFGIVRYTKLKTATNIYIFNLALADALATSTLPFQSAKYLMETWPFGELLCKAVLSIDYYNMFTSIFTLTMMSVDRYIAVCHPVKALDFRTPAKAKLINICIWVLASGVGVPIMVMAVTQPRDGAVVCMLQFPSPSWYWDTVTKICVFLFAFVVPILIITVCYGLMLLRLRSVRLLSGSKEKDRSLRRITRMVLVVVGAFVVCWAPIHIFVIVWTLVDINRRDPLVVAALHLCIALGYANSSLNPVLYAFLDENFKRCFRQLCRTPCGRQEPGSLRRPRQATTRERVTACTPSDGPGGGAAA
Chain of UniProt P41145 (whole entry, looked up): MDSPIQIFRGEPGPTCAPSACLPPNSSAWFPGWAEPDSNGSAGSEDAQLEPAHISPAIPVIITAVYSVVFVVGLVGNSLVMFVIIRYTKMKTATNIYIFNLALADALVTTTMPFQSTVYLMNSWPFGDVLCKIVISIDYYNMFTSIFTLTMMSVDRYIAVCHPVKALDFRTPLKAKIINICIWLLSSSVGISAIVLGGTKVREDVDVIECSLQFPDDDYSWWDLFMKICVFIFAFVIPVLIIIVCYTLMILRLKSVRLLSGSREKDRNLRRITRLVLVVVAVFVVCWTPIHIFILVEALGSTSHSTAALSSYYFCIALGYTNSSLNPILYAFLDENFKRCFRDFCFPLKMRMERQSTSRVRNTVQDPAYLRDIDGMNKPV

| SMILES | target | assay | test system | setting | how to read | quantity | value |
| --- | --- | --- | --- | --- | --- | --- | --- |
| CSCC[C@H](NC(=O)[C@H](Cc1ccccc1)NC(=O)CNC(=O)CNC(=O)[C@@H](N)Cc1ccc(O)cc1)C(=O)O | Delta-type opioid receptor (Oprd1, Mus musculus, UniProt P32300) | agonist | HEK293 |  |  | Emax | 49 ± 6% |
| CC[C@H](C)[C@H](NC(=O)[C@H](CCCNC(=N)N)NC(=O)[C@H](CCCNC(=N)N)NC(=O)[C@H](CC(C)C)NC(=O)[C@H](Cc1ccccc1)NC(=O)CNC(=O)CNC(=O)[C@@H](N)Cc1ccc(O)cc1)C(=O)N[C@@H](CCCNC(=N)N)C(=O)N1CCC[C@H]1C(=O)N[C@@H](CCCCN)C(=O)N[C@@H](CC(C)C)C(=O)N[C@@H](CCCCN)C(=O)N[C@@H](Cc1c[nH]c2ccccc12)C(=O)N[C@@H](CC(=O)O)C(=O)N[C@@H](CC(N)=O)C(=O)N[C@@H](CCC(N)=O)C(=O)O | OPRM1 C348A/C353A |  |  | concentration not given | reference: human MOR | binding affinity change | no effect |
| CC(C)C[C@H](NC(=O)[C@H](CCCCN)NC(=O)[C@H](CCCNC(=N)N)NC(=O)[C@H](C)NC(=O)[C@H](CO)NC(=O)[C@H](CCCCN)NC(=O)[C@H](CCCNC(=N)N)NC(=O)[C@H](C)NC(=O)CNC(=O)[C@@H](NC(=O)[C@H](Cc1ccccc1)NC(=O)CNC(=O)CNC(=O)[C@@H](N)Cc1ccccc1)[C@@H](C)O)C(=O)N[C@@H](C)C(=O)N[C@@H](CC(N)=O)C(=O)N[C@@H](CCC(N)=O)C(=O)O | Kappa-type opioid receptor (OPRK1, Homo sapiens, UniProt P41145) | agonist |  |  |  | Emax | 74.3% |
| CSCC[C@H](NC(=O)[C@H](Cc1ccccc1)NC(=O)CNC(=O)CNC(=O)[C@@H](N)Cc1ccc(O)cc1)C(=O)O | OPRM1 C348A/C353A |  |  | concentration not given | reference: human MOR | binding affinity change | no effect |
| CC[C@H](C)[C@H](NC(=O)[C@H](CCCNC(=N)N)NC(=O)[C@H](CCCNC(=N)N)NC(=O)[C@H](CC(C)C)NC(=O)[C@H](Cc1ccccc1)NC(=O)CNC(=O)CNC(=O)[C@@H](N)Cc1ccc(O)cc1)C(=O)N[C@@H](CCCNC(=N)N)C(=O)N1CCC[C@H]1C(=O)N[C@@H](CCCCN)C(=O)N[C@@H](CC(C)C)C(=O)N[C@@H](CCCCN)C(=O)O | Mu-type opioid receptor (OPRM1, Homo sapiens, UniProt P35372) | agonist, cAMP GloSensor |  |  |  | maximal cAMP inhibition | 68.8% and 64.3% and 65.5% |

For quick reference, copied from above:
| SMILES | target | assay | test system | setting | how to read | quantity | value |
| --- | --- | --- | --- | --- | --- | --- | --- |
| CC(C)C[C@H](NC(=O)[C@H](CCCCN)NC(=O)[C@H](CCCNC(=N)N)NC(=O)[C@H](C)NC(=O)[C@H](CO)NC(=O)[C@H](CCCCN)NC(=O)[C@H](CCCNC(=N)N)NC(=O)[C@H](C)NC(=O)CNC(=O)[C@@H](NC(=O)[C@H](Cc1ccccc1)NC(=O)CNC(=O)CNC(=O)[C@@H](N)Cc1ccccc1)[C@@H](C)O)C(=O)N[C@@H](C)C(=O)N[C@@H](CC(N)=O)C(=O)N[C@@H](CCC(N)=O)C(=O)O | Kappa-type opioid receptor (OPRK1, Homo sapiens, UniProt P41145) | agonist |  |  |  | Emax | 74.3% |
